Experimental data pooled from the literature.
Parts stem from different laboratories: compare values within a part only. Substitutions count along the parent as printed.

Set 1
Target: Histone acetyltransferase KAT6A, winged helix 1, GST fusion (KAT6A, Homo sapiens, UniProt Q92794, residues 1-85)
Method: protein binding microarray
Molecule type: double-stranded DNA, one strand shown
Sample: in vitro
Concentration: not given
Setting: 8-mer, flanks averaged, mean of 2 arrays, mostly near background
Reference: not given
Reading: higher = stronger binding
Construct (chain): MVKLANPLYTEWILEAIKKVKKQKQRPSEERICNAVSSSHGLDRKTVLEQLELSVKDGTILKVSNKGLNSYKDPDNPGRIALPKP
Oligonucleotide | E-score
CCTATTAC | -0.0933
CATGTAGA | -0.167
CGACCGCG | 0.415
AACAACGC | 0.0681
CTTGAAAG | -0.172
ACAAAAAG | -0.0528
TAGGGACA | -0.0597
GTGACCTA | -0.177

Set 2
Target: CCNA2, cyclin fold, Cln2 fusion (human)
Method: yeast growth competition, sequencing
Sample: yeast
Setting: strong parent motif
Reference: not given
Reading: higher = stronger binding
Parent: viral docking peptide; YKVKRRLVFGADD
Substitution | normalised enrichment score
YKVKRRLVFMADD [G10M] | 5.99
YKVKRRLVFGAID [D12I] | 6.39
YKVKRRDVFGADD [L7D] | 0.533
YKVKARLVFGADD [R5A] | 3.03
YKRKRRLVFGADD [V3R] | 4.17
YKVKRRPVFGADD [L7P] | 0.842
YKVKHRLVFGADD [R5H] | 2.45
YKVKRYLVFGADD [R6Y] | 2.55
YKVKGRLVFGADD [R5G] | 1.67
YKVKRRLIFGADD [V8I] | 6.27
YKVYRRLVFGADD [K4Y] | 5.71
YKVKRRLHFGADD [V8H] | 6.27
YKVKRRAVFGADD [L7A] | 0.539
YKVKRRLVFGWDD [A11W] | 6.45
YKVKRRLVLGADD [F9L] | 4.67
YKVKRRLDFGADD [V8D] | 7

Set 3
Target: TAR DNA-binding protein 43, full length, His tag (TARDBP, Homo sapiens, UniProt Q13148, residues 1-414)
Method: RNA Bind-n-Seq
Molecule type: RNA
Sample: in vitro
Concentration: 20 nM
Setting: 6-mer, flanks averaged, single round
With: 150 mM LiCl
Reference: input library
Reading: higher = stronger binding
Oligonucleotide | 6-mer enrichment (R)
AUCUGA | 0.782
UUGCGG | 1.09
CCCAGG | 0.991
UGCUGU | 1.12
UAACUG | 0.88
GGUGUU | 1.44
AUGUCG | 1
GGUCAC | 0.876

Set 4
Target: tungstate, free oxyanion
Method: microfluidic competitive inhibition
Sample: in vitro, cell-free expressed
Concentration: not given
Setting: derived from inhibition constants, unchanged parent 2230 nM
Reading: lower = stronger binding
Parent: PafA, mature enzyme, eGFP fusion (Elizabethkingia meningoseptica, UniProt Q9KJX5); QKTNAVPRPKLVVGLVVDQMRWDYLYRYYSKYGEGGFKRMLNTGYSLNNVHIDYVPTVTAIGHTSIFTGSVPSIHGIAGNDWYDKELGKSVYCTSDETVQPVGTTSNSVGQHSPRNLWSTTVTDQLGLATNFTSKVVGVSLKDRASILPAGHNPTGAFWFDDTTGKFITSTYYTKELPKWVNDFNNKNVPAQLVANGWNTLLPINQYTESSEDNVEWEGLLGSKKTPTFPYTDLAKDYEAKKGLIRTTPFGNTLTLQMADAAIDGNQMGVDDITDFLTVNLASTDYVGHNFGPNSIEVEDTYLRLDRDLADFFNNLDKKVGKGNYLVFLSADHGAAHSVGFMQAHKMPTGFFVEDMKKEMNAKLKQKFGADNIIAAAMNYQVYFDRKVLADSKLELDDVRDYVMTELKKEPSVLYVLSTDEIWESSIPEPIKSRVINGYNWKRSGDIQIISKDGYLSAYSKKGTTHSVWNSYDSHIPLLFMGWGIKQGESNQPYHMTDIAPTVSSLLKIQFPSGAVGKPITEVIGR
Substitution | oxyanion analog dissociation constant
R307G | 2180 nM
I61V | 1960 nM
G219V | 2430 nM
R144G | > 211000 nM
S210G | 1880 nM
K393V | 2170 nM
P7V | 2360 nM
Y383G | 1720 nM
W82V | 4400 nM
Y380V | 1980 nM
E299V | 2190 nM
G222A | 1590 nM
W441G | 1440 nM
H333V | 3610 nM
G127A | 2090 nM
A157G | 2120 nM
K166V | 2360 nM
E429V | 1860 nM
P428G | 1070 nM
D53V | 1180 nM
C93V | 1670 nM
F158G | 1280 nM
T105G | 1890 nM
H495V | 2170 nM
T121G | 1870 nM

A few entries again (set 1):
Oligonucleotide | E-score
CCTATTAC | -0.0933
CATGTAGA | -0.167
CGACCGCG | 0.415
AACAACGC | 0.0681
CTTGAAAG | -0.172
ACAAAAAG | -0.0528
TAGGGACA | -0.0597
GTGACCTA | -0.177
